Results from different studies.
Numbered parts are unrelated; each lists some results of a single study. Changes are numbered by the printed parent chain.

Sample 1
Molecule: PhoQ, residues 284 288 289 292 302 303 TLASMF
Method: Sort-seq
Refers to: YFP reporter
Sample: E. coli
Notes: PhoQ-PhoP variant library
Together with: 10 µM Mg2+
Baseline: high Mg2+ state
Reading: higher = stronger signaling
target | fold induction
PhoP, residues 12 14 15 18 19 HHYTI (Escherichia coli, UniProt P23836) | 7.52
PhoP, residues 12 14 15 18 19 SFCSL (Escherichia coli, UniProt P23836) | 4.08
PhoP, residues 12 14 15 18 19 AYFRS (Escherichia coli, UniProt P23836) | 10.1

Sample 2
Target: Histone acetyltransferase KAT6A, both winged helices, GST fusion (KAT6A, Homo sapiens, UniProt Q92794, residues 1-181)
Method: protein binding microarray
Molecule type: double-stranded DNA, one strand shown
Sample: in vitro
Tested at: not given
Notes: 8-mer, flanks averaged, mean of 2 arrays, mostly near background
Baseline: not given
Reading: higher = stronger binding
Residues (chain): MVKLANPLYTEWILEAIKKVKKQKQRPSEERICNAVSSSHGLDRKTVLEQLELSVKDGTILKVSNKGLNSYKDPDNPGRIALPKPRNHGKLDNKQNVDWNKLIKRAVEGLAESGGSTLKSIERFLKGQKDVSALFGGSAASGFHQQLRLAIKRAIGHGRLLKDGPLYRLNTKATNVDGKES
Sequence | E-score
CCTGCATA | -0.102
CACAGGTC | -0.0779
CATTCGCC | 0.139
ATAGTTCC | -0.115
AAATCCTT | -0.115
CTTAAACC | -0.117
GCGCAGCA | 0.151
TAGGTCAA | -0.251
GCCAAACC | -0.00259
GAGATTCC | 0.0182
CTGAAAAA | -0.156
CTTCCTGA | -0.25

Sample 3
Target: CCNB2, cyclin fold, Cln2 fusion (human)
Method: yeast growth competition, sequencing
Sample: yeast
Notes: strong parent motif
Baseline: not given
Reading: higher = stronger binding
Parent: E2F1 docking peptide (human); PPVKRRLDFETDH
Substitution | normalised enrichment score
R6M | 2.43
P2T | 3
D12V | 3.66
V3F | 0.62
V3N | -0.22
D12I | 3.56
D12G | 3.63
R6W | 1.2
K4H | 1.31
T11G | 3.65
K4V | 2.94
L7K | 0.0679
V3W | 0.762
E10N | 3.24
T11H | 4.03
E10C | 2.83
D12H | 3.25
R6S | 1.68

Sample 4
Target: RNA binding protein fox-1 homolog 2, RRM domain, GST-SBP tag (RBFOX2, Homo sapiens, UniProt O43251-10, residues 100-194)
Method: RNA Bind-n-Seq
Molecule type: RNA
Sample: in vitro
Tested at: 365 nM
Notes: natural RNA segment, single round, ends assumed
Baseline: no-protein control
Reading: higher = stronger binding
Target sequence (chain): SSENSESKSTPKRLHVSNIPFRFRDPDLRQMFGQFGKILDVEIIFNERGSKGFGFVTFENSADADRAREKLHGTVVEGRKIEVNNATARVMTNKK
Sequence | RBNS enrichment (R)
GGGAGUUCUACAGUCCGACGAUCCCAGGACCAAGUCCUCUGCUGUUGGGGACCAUGGCCUGUCUCCUCACCUUAGUCCCUGGGCGUUUGCUUAUUGGUCUCCUGGAAUCUCAAAGGGCCUGAGGCCUUAGGCUUGGAAUUCUCGGGUGCCAA | 0.278
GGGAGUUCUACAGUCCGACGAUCUUUUGAUUUCAGUGCCUGUUGGGGACUUGAUUUCUUCUCAGUUUUGUUUGUUUGUUUGUUUCCUUAAUCUGGCUCAUUUGAAAUUUCUUCUCCCUCUCAACCAUCCCACUUGGAAUUCUCGGGUGCCAA | 1.69
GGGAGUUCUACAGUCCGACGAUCAUGAACGAUAGAUCACAUCAGAACUCCUGUGGGGAGGAAACCUUAUAAAUUAAACACAUGGCCCCCUUAGAGACCACAGGUGAUGUCUGUCUCCAUCCUUCCCUCUCCUUUGGAAUUCUCGGGUGCCAA | 1.46
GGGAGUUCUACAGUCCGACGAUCUUUUAUGUUUUGUACAUUAAUUGAUUAAUAAAAUAAUAAUUUUAUGUGAGAAUGUUUUCAAAAAGCCAAAUAAAGUCACAGAUAUUUUAGCUUCUUUCCCAGAAUAAACUUGGAAUUCUCGGGUGCCAA | 0.603
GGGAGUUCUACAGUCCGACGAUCCCUGGUAUUGGGCAUGGAAAUUUGAAUUGCUGAUUGGUAGAUGGUGUGUCUGGACUUAACUCACGUAGUAAAUACUGCUGAUCAAUACCUAAUCAUUCCACAUUUAUUGAUGGAAUUCUCGGGUGCCAA | 0.884
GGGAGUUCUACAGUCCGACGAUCAAGCCUGAGAAGUCACUUUGGAACUAAAUUGCCUCCAUUUUAUUUUGUACGAGUAAGGGUUUGAUCUACAAAAGAGCUCACAUGGACGCACUGAGAACGCCUGCCAGCUUUGGAAUUCUCGGGUGCCAA | 1.16
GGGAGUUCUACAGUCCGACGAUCUCUUAUAUUUUCAUGAGUUUUUAUUUUGUCUCUGAGAUUUUGUAUUCCACAUUCUAGGGUAUUCUGUAAUUUGGCUCCUUACCAAUAUUAUUAAAAUCUUAUUAAAAUCUUGGAAUUCUCGGGUGCCAA | 1.02
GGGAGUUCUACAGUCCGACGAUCCUAACCCUCUUUUCCUACAAAGGAGAAAGAUAAAAGGCACAAAGGUUACCGCCAAGGCCCGUCAGCUGUGUAGUGGCAAAGCCGAGACCGAGUCUCCUAAGUCCCCGUCAUGGAAUUCUCGGGUGCCAA | 0.329

Some of these lines once more (sample 2):
Sequence | E-score
CACAGGTC | -0.0779
CATTCGCC | 0.139
ATAGTTCC | -0.115
AAATCCTT | -0.115
